Measured values of several laboratories.
Lines come from different studies, so protocols differ. Several values in a cell are separate wells, animals, samples, runs or records. ± marks the error that the study gave.

Compound | target | assay | system | conditions | how to read | quantity | result
CC(C)C[C@H](NC(=O)[C@H](Cc1ccc(O)cc1)NC(=O)[C@@H](CCCNC(=N)N)NC(=O)[C@@H](CO)NC(=O)[C@H](Cc1ccccc1)NC(=O)[C@H](CC1CCCCC1)NC(=O)[C@@H](N)CC(=O)O)C(=O)N[C@@H](Cc1c[nH]c2ccccc12)C(=O)N[C@@H](CO)C(=O)O | Urokinase plasminogen activator surface receptor (Homo sapiens, UniProt Q03405) | binding, SPR | – | – | – | koff | 0.0076 s⁻¹
CCC(C)N(C)C(=O)C(C)Cc1cc(-c2ccccc2)nc2ccccc12 (stereo not drawn) | Tspo (Rattus norvegicus, UniProt P16257) | binding | rat brain homogenate | pKi minus clogD | – | lipophilic efficiency | 2.9 ± 0.2
O=Cc1c(O)c(C=O)c(O)c(C=O)c1O | CD209 antigen (CD209, Homo sapiens, UniProt Q9NNX6) | activator, plate-based HRP | – | 500 µM, overnight, 4 °C or RT | relative to: DMSO control | HRP binding | ≥ 50%
O=C(Nc1ccc(C(F)(F)F)cc1Cl)c1cc(Cl)ccc1O | Androgen receptor, AR-V7 isoform (AR, Homo sapiens, UniProt P10275) | degrader | – | concentration not given, with: cycloheximide 50 µg/mL | relative to: untreated cells | protein degradation | increased
O=C(O)[C@@H]1O[C@@H](O[C@H]2[C@H](O)[C@H](O)[C@H](O[C@H]3[C@H](O)[C@H](O)[C@H](O[C@H]4[C@H](O)[C@H](O)[C@H](O)O[C@H]4C(=O)O)O[C@H]3C(=O)O)O[C@H]2C(=O)O)[C@@H](O)[C@@H](O)[C@@H]1O | Beta-lactoglobulin (LGB, Bos taurus, UniProt P02754, A134V/G80D) | isothermal titration calorimetry | – | concentration not given, pH 2.65, 37 °C, 50 mM KH2PO4 | ligand per protein | binding stoichiometry | 5
COC(=O)CC1N=C(c2ccc(Cl)cc2)c2c(sc(C(=O)NCCCCCNc3cccc4c3C(=O)N(C3CCC(=O)NC3=O)C4=O)c2C)-n2c(C)nnc21 (stereo not drawn) | BRD2 (Homo sapiens, UniProt P25440) | degrader, western blot | HEK-293T | 5 h | – | degradation | inactive
CNc1ccccc1C(=O)O[C@H]1C[C@H](n2cnc3c(N)ncnc32)O[C@@H]1COP(=O)(O)OP(=O)(O)O | Unconventional myosin-Va (Gallus gallus, UniProt Q02440, D297C/G292C/I296C/S293C/V295G) | stopped-flow FRET | – | 4 °C, with: EDTA 4 mM | – | association rate constant | 2.01e+06 ± 140000 M⁻¹ s⁻¹
O=C(O)c1ccc(/C=C2\SC(=S)N(Cc3cccc(C(F)(F)F)c3)C2=O)cc1 | NACHT, LRR and PYD domains-containing protein 3, with ASC (Nlrp3, Mus musculus, UniProt Q8R4B8) | – | mouse BMDM | concentration not given, with: nigericin | – | NLRP3 level | decreased
COc1cccc(C(=O)N[C@H]2[C@@H](O)[C@@H](CO)O[C@@H](S[C@@H]3O[C@H](CO)[C@H](O)[C@H](NC(=O)c4cccc(OC)c4)[C@H]3OS(=O)(=O)O)[C@@H]2O)c1 | Galectin-3 (LGALS3, Homo sapiens, UniProt P17931) | ITC | – | – | – | ΔH | -55.4 ± 0.3 kJ/mol
O=C(Nc1nc2ccccc2s1)C1CCN(S(=O)(=O)c2ccc(F)c(Cl)c2)CC1 | Napepld (Mus musculus, UniProt Q8BH82) | enzyme activity | RAW264.7 | concentration not given, with: PED-A1 substrate | – | activity | no effect
CCc1nc2cc3ccccc3cc2cc1C(=O)N[C@@H](CCCCN)C(=O)N[C@@H](C/C=C/C[C@H](NC(=O)[C@H](CCCCN)NC(=O)c1cc2cc3ccccc3cc2nc1CC)C(=O)N1CCC[C@H]1C(=O)NCCCN)C(=O)N1CCC[C@H]1C(=O)NCCCN | (CUG)10 RNA | SPR | – | – | – | residence time | 257 s
C[n+]1cn(C2OC(COP(=O)([O-])OP(=O)(O)OP(=O)(O)OCC3OC(n4cnc5c(=O)[nH]c(N)nc54)C(O)C3O)C(O)C2O)c2nc(NCc3cc(-c4ccccc4)no3)[nH]c(=O)c21 (stereo not drawn) | DNA-directed RNA polymerase (Enterobacteria phage SP6, UniProt P06221) | in vitro transcription, densitometry | short RNA | – | – | capping efficiency | 88.5% and ~90%
